# Measured values from different studies.
# Parts stem from different laboratories: compare values within a part only. Substitutions count along the parent as printed.

# Series 1 — target: UBE2M UBC core domain (UniProt P61081); method: yeast two-hybrid; medium: yeast; setting: mostly zero background; relative to: not given; reading: higher = stronger interaction
# B1: TRIM35 RING domain (UniProt Q9UPQ4); chain PSRSFKEELLCAVCYDPFRDAVTLRCGHNFCRGCVSRCWEVQVSPTCPVCKDRASPADLRT
# B2: ANKIB1 RING domain (UniProt Q9P2G1); chain LSPGDLDTSLCDICMCSISVFEDPVDMPCGHDFCRGCWESFLNLKIQEGEAHNIFCPAYDCFQLVPVDIIE
# B3: PEX2 RING domain (UniProt P28328); chain DNTLATSGKECALCGEWPTMPHTIGCEHIFCYFCAKSSFLFDVYFTCPKCGTEVHSLQPLK
# B4: TRIM38 RING domain (UniProt O00635); chain STKKMMEEATCSICLSLMTNPVSINCGHSYCHLCITDFFKNPSQKQLRQETFCCPQCRAPFHMDSLRP
# B5: TRIM52 RING domain (UniProt Q96A61); chain PMQTLQEEAVCAICLDYFKDPVSISCGHNFCRGCVTQLWSKEDEEDQNEEEDEWEEEEDEEAV
# B6: RFPL2 RING domain (UniProt O75678); chain MAALFQEASSCPVCSDYLEKPMSLECGCAVCLKCINSLQKEPHGEDLLCCCSSMVSRKNKIRR
# B7: RNF5 RING domain (UniProt Q99942); chain ERGGAGATFECNICLETAREAVVSVCGHLYCWPCLHQWLETRPERQECPVCKAGISREKVVP
# B8: RNF112 RING domain (UniProt Q9ULX5); chain QPMAPRELPTCSICLERLRDPISLDCGHDFCIRCFSTHRLPGCEPPCCPECRKICKQKRGLR
# Target sequence (chain): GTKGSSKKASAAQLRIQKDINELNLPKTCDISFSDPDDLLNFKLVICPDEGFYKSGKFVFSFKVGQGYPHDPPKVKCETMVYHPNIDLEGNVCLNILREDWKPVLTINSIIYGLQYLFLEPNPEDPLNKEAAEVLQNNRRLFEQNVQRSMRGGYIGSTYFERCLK
Sequence,lacZ reporter activity
B1 (TRIM35 RING domain),0
B2 (ANKIB1 RING domain),0
B3 (PEX2 RING domain),0
B4 (TRIM38 RING domain),0
B5 (TRIM52 RING domain),0
SYEDKSNDFVCPICFDMIEEAYMTKCGHSFCYKCIHQSLEDNNRCPKCNYVVDNIDHLY (COP1 RING domain (UniProt Q8NHY2)),0
B6 (RFPL2 RING domain),0
B7 (RNF5 RING domain),0
B8 (RNF112 RING domain),0

# Series 2 — method: protein-binding microarray; form: double-stranded DNA, one strand shown; medium: in vitro; tested at: 940 nM top; setting: 60-bp whole probe; added: salmon DNA 0.4 mg/ml; relative to: random background probes; reading: higher = stronger binding; constant ends, left off below: GCCTAGCAC … GTCTTGATTCGCTTGACGCTGCTG
# Target: Interferon regulatory factor 5, full length, phosphomimetic (IRF5, Homo sapiens, UniProt Q13568-2, residues 1-514, S451D/S453D/S456D/S462D)
Sequence,fitted relative affinity
GACGGTTTCGGGTTTCGTGACGTGCTA,7.74 z-score
TTAGGTATCGGGACTAGGTTAGTGCTA,3.63 z-score
TTAGAACTGGGGTGTCGATTAGTGCTA,0.277 z-score
TTAGTTTCCCTTTTCCTTTAGTGCTAG,5.36 z-score
GACGATATCCGTCTCGAGACGTGCTAG,0.405 z-score
GACGAACTGGGGTATCGACACGTGCTA,0.757 z-score
GTCGGACTGGGGTATCGGGACGTGCTA,0.49 z-score
GGTGGTCTGGGACCCTCCCCGTGCTAG,-0.424 z-score
GACGGTTCCCTTTCCCTGACGTGCTAG,0.72 z-score
GTCGATATCAGTTTCGAGACGTGCTAG,6.21 z-score
GTACCACTCCAGTTCTGGGAGTGCTAG,0.499 z-score
TTAGATTTCGGACTGGATTAGTGCTAG,0.509 z-score
TTAGGATTGCTTCTCCTTTAGTGCTAG,-0.265 z-score
AACGATTTCAGTTCCGAGACGTGCTAG,0.832 z-score
TTAGGACTGTGGACTGGGTTAGTGCTA,-0.438 z-score
GACGGTCTCCTTTTCCTGCCGTGCTAG,0.657 z-score
GACGGTATCGGGACTGTGGACGTGCTA,2.9 z-score
ATAGGACTGCTTATCCTTTAGTGCTAG,-0.082 z-score
TTCGGTATCCTTCTCCTTTAGTGCTAG,0.985 z-score
ATGCCTTTCGTCAAGAAGACGTGCTAG,0.379 z-score

# Series 3 — target: CCND2, cyclin fold, Cln2 fusion (human); method: yeast growth competition, sequencing; medium: yeast; setting: weak parent motif; relative to: not given; reading: higher = stronger binding
# Starting sequence: SCAPER docking peptide (human); SNARRSLNFGGST
Substitution,normalised enrichment score
T13F,0.369
L7P,0.337
G10I,0.225
G10R,0.129
S12F,0.582
S1C,0.662
N8I,0.726
R5P,0.148
T13C,0.545
T13M,0.25
N8H,0.48
G10W,0.377
G10C,0.126
L7I,0.501
R5S,0.391
S6T,0.399
S6M,1

# Series 4 — method: protein binding microarray; form: double-stranded DNA, one strand shown; medium: in vitro; tested at: not given; relative to: not given; reading: higher = stronger binding
# Target: Histone acetyltransferase KAT6A, winged helix 1, GST fusion (KAT6A, Homo sapiens, UniProt Q92794, residues 1-85)
# Setting: 8-mer, flanks averaged, mean of 2 arrays, mostly near background
# Target sequence (chain): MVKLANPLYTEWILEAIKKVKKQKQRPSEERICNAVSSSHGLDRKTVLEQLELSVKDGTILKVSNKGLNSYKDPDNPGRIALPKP
Sequence,E-score
ACAATCCC,0.0452
CGGCCCCC,0.212
GCTATGCC,-0.00693
GGAGCCCC,0.182
TCAGACCA,-0.172
TCGTATCA,-0.119
AGCGCAAA,0.141
CGGCTTGC,0.33
ATCTCGGC,0.168
CGTCATTC,0.0631
CCAACTGA,-0.134
CTCGCATC,-0.0393
CATCGTCA,-0.163
ATTTAGAG,-0.113
AGACTATG,-0.112
AGAGCTCC,0.0393
CGCTGCAC,0.24
ATTAGAGA,-0.113
CCGCGAAC,0.319
ATCCGCAG,0.057
GAGGACCC,0.00331
CCTTGGGA,-0.164
CCCACTCG,-0.0974
TTACAAAA,0.00169
GCACAAAA,-0.052

# Series 5 — method: RNA Bind-n-Seq; form: RNA; medium: in vitro; tested at: not given; relative to: input RNA pool; reading: higher = stronger binding
# Target: RING finger protein unkempt homolog, zinc fingers 1-6, GST-SBP tag (UNK, Homo sapiens, UniProt Q9C0B0, residues 30-357)
# Setting: RNA with constant flanks, human and mouse sites, ends assumed
# Constant ends, left off below: GGGAGUUCUACAGUCCGACGAUC … CAACAGAGGAUUGAGCAUCA
# Residues (chain): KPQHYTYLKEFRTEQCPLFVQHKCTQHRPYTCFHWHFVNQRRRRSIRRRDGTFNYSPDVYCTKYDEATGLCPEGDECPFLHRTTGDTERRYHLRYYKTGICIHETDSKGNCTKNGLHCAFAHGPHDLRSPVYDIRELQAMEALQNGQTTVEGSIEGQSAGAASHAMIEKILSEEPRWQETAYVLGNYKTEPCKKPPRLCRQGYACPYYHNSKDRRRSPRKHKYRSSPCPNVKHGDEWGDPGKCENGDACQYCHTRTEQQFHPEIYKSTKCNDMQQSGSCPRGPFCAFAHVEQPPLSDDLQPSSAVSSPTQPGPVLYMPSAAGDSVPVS
Sequence,bound/input enrichment
GAAUUCAAUUUAUUUAAACAAAAAAAAUUUUUUAAAGAUUUAUUUAUUUAUUAUAUGUAAGUACACUGUAGCUGUCUUCAGACACCCCAGAAAAGGGCAUCAGAUCUCAUUAUGUAUGUA,3.1 ratio
CCUACAACCAUCAUGAAUGCAGAUAUUCUAGCAUAUUGUCAGAAGGAAGGAUGGUGCAAAUUAGCUUUUUAUCUUCUAGCAUUUUUUUACUACCUAUAUGGCAUGAUCUAUGUUUUGGUG,14 ratio
AGAUUGGCAUCAGCGCGGACACUGUAUGAGGUUUCCCUCCAGGAGUCAAUCCGAUACGCCCCUGGGGAUGCAGUGGAGAAGUGGCUGAAUGACUUGCUGUGCCUGGAUUGCCUCAACAUC,0.0549 ratio
UAACCUUAACAAACGGAUCAGCUAUCUCUACAAACACUUUAACCGACAUGGGAAGUACAGAUAGGACGGGAAAUGUGUCACCCUGGAGAAGGGGAACAGGACUUAUCCCAGCAAGGAGAG,0.202 ratio
AUGAUCACAGUAGAUAUUAUUCCUUCAGGUUGGAAUUCAGCUGAUGGUAAAAGUGAUAAAACUAAAAGUGCGCCUUCAAGAGAUCCAGAAAGAUUGCAGAAAAUAAAAGAGAGCCUCCUU,0.426 ratio
ACAAAAAAAUGUUGUAGUUGCAGAACUUAGUUUAUAAAAACAAAGAAUGUGUAUUUCUUCAAUAGCCGGGUAUUUGGAUUGUUCUCUUGAUAAUAUUUGAAUGUGACUCUUGGAUUUAAG,2.49 ratio
CUGACUGCUAAAAUCCAGGAGCUCAAGGAAGAGUACGCUAGGAAGAGGGAAACCAUUUCCACUGCUAACAAAGCUAAUGAAGAGAGAUUGAAAGGACUGCAGAAAUCAGCGGAUCUGUAU,0.25 ratio
UCUUGGGCAGAAGAGACAAACUCAAUGUUAAAAUCUCUAGGAGUGACCACGAAGUUUCAUAGUUUUCCAAAUGUUUACCAUGAGCUAAGCAAAACUGAGUUAGACAUAUUGAAGUUAUGG,0.291 ratio
UUUCGCUUGGCGCUGGGCAGCUUCGUGGAGGAGUACAACAACAAGGUUCAGCUUGUUGGUUUAGAUGAGGAGAGUUCAGAGUUUAUUUGCAGAAACACCUUUGACCACCCAUACCCCACC,0.214 ratio
CCUGACAGCUGGGUGUGUGACUUAGGUAGGUGAGCCUGUGAAACAGUAUGAAGAGAAGAAAAUAGCCUUUUAAAGAGACUGGCCCACAGAAAGGAUGGCCUUCUUGGACAAUCCAACUAU,0.336 ratio
CAGUACAAAGAUGACAAUUUUGGAGAAGGAAAUGAUGGCGGUAUAUUAGAUGACAAACUUAUAAGUAAUAAUGAUGGUGGCAUCUUUGACGAUCCCCCUGCCUUGUCUGAGGCAGGGGUC,5.11 ratio

# Repeated from above (series 3):
Substitution,normalised enrichment score
T13F,0.369
G10C,0.126
L7P,0.337
T13C,0.545
G10W,0.377
